Assay results gathered from unrelated publications.
Every numbered part comes from another study and shows a few of its results, in no order. Positions count from the first letter of the parent shown.

Block 1
Target: CCND2, cyclin fold, Cln2 fusion (human)
Technique: yeast growth competition, sequencing
Sample: yeast
Setting: weak parent motif
Baseline: not given
Direction: higher = stronger binding
Parent: MICAL3 docking peptide (human); LQLRRQLSFSEDS
Substitution | normalised enrichment score
LQLRRQLSFSEES [D12E] | 0.371
LQLRRQLSFSGDS [E11G] | 0.121
LDLRRQLSFSEDS [Q2D] | 0.613
LQLRRQLSWSEDS [F9W] | 0.326
LQNRRQLSFSEDS [L3N] | 0.109
LQLRRDLSFSEDS [Q6D] | -0.0203

Block 2
Target: Fragile X messenger ribonucleoprotein 1, C-terminal low-complexity region (Fmr1, Mus musculus, UniProt P35922)
Technique: RNA Bind-n-Seq
Form: RNA
Sample: in vitro
Concentration: 200 nM
Setting: whole 134-nt RNA, ends assumed
Together with: 150 mM KCl
Baseline: input library
Direction: higher = stronger binding
Constant ends, left off below: GGGAGUUCUACAGUCCGACGAUC … UGGAAUUCUCGGGUGUCAAGG
Strand | log2 enrichment
CUGUGCUACACAUCGUAUGUACCGAAUCGGGGAAAAAAAGGGGUUUUUGGGGAAAAAGGGGAAAGUAUUAUGUUACGCCGUUCGGAUCUG | -0.14
CACAGACAACACGCACCCACACAGACACAGAGGGAAGGGGUUGGGAUGGGGACAGGGUGCACAGCAGGGCCGGGUAGGACCCCAGCCCCU | 1.39
CUGUGCUACACAUCGUAUGUACCGAAUCGGGCCCCCCCGGGGCCCCCCCGGCCCCCCCGGGGAAAGUAUUAUGUUACGCCGUUCGGAUCU | -1.3
UCCUGUGCUACACAUCGUAUGUACCGAAUCGGGGCCCCCCGGCCCCCCGGCCCCCCGGGGAAAGUAUUAUGUUACGCCGUUCGGAUCUGC | -0.14
UCCUGUGCUACACAUCGUAUGUACCGAAUCGGGUUUUUGGGAAAAAGGGUUUUUUUGGGAAAGUAUUAUGUUACGCCGUUCGGAUCUGCA | -0.149
CUGUGCUACACAUCGUAUGUACCGAAUCGGGGUUUUUUUGGUUUUUUUGGGUUUUUUUGGGAAAGUAUUAUGUUACGCCGUUCGGAUCUG | -0.816
GUCCUGUGCUACACAUCGUAUGUACCGAAUCGGGAAAAAGGGUUUUUUUGGGUUUGGGAAAGUAUUAUGUUACGCCGUUCGGAUCUGCAC | -0.442
AAGUCCUGUGCUACACAUCGUAUGUACCGAAUCGGGGAGGGGUGGGGAAAAAGGGGAAAGUAUUAUGUUACGCCGUUCGGAUCUGCACUU | 0.697
UGUCGGGGCCAAAGUGGUAACGAACGCCCGCAGCCCGGGGGCUCGAUGCUAUGGAUUCGUCACCAUGUCGACAUCUGACGAGGCGACCAA | -2.38
GCAGGAAGUAAAAACAAAUGGAAAUGCUUCGGAUAGUGGCAGGGGUGGGGGUUGCUAAGGAAAGGAUGGGAUGGGAGUGGGUAAAGAGUU | 0.0875

Block 3
Target: TATA-box-binding protein 1 (TBP1, Arabidopsis thaliana, UniProt P28147, residues 1-200, full length assumed)
Technique: protein-binding microarray
Form: double-stranded DNA, one strand shown
Sample: in vitro
Concentration: not given
Setting: k-mer, scored over probes, only values ≥0.25
Direction: higher = stronger binding
Construct (chain): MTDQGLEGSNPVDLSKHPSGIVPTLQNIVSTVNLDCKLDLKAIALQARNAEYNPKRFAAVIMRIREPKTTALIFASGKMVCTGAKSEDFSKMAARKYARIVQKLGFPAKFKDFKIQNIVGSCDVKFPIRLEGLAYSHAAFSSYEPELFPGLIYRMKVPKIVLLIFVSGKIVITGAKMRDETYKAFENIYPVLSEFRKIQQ
Strand | E-score
TAAAGGA | 0.335
AGTTAAA | 0.38
ATTTTAA | 0.396
TAAACTA | 0.274
GCATTAA | 0.299
TATAAGA | 0.44
ATATGAC | 0.325
ATATTCC | 0.32

Further values, each from its own experiment
Molecule | target | assay | system | setting | how to read | endpoint | value
PhoQ, residues 284 288 289 292 302 303 SVTLVV | PhoP, residues 12 14 15 18 19 SEGLL (Escherichia coli, UniProt P23836) | Sort-seq, item: YFP reporter | E. coli | PhoQ-PhoP variant library, together with: 10 µM Mg2+ | baseline: high Mg2+ state, higher = stronger signaling | fold induction | 15.2

Repeated from above (block 2):
Strand | log2 enrichment
UCCUGUGCUACACAUCGUAUGUACCGAAUCGGGUUUUUGGGAAAAAGGGUUUUUUUGGGAAAGUAUUAUGUUACGCCGUUCGGAUCUGCA | -0.149
CUGUGCUACACAUCGUAUGUACCGAAUCGGGGUUUUUUUGGUUUUUUUGGGUUUUUUUGGGAAAGUAUUAUGUUACGCCGUUCGGAUCUG | -0.816
